# Results gathered from unrelated publications.
# Parts stem from different laboratories: compare values within a part only. Changes are numbered by the printed parent chain.

# Study 1
# Target: RNA binding protein fox-1 homolog 2, RRM domain, GST-SBP tag (RBFOX2, Homo sapiens, UniProt O43251-10, residues 100-194)
# Method: RNA Bind-n-Seq
# Molecule type: RNA
# Medium: in vitro
# Concentration: 365 nM
# Notes: natural RNA segment, single round, ends assumed
# Baseline: no-protein control
# Reading: higher = stronger binding
# Residues (chain): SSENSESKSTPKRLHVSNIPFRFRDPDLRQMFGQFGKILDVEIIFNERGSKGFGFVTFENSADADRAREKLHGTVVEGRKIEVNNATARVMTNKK
Sequence,RBNS enrichment (R)
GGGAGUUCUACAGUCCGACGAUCCUUGAUUGAGAUCAGAAUCCAUCAGGGUCUUAGACUCUGCCCCCCCUCACCCCACUCUCUUCCCAUGUUCGUUGAUCCACCCCUAUCUGAGAAACUCCAGCCUCAAGAAUUGGAAUUCUCGGGUGCCAA,1.03
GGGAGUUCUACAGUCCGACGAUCAUCUAUUUUUUUUUUUGACAGAGUCUUGCUCUGUCACCCAGGCUGGCGUACAGUGGUACGAUCUCAGCUCACUGCAUCCUCUGCCUCCCCCAGUUCAAGUGAUUCUUCUGUGGAAUUCUCGGGUGCCAA,1.69
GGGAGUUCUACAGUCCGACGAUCAUGAAUGGGCAAUGUUGUGUUGAUACGCAGCCGAGUUCUACGUUAUGUGCUGUGACUGUGCAGCUGGACGACCCCCAUCCCCAGGAGGCAGUUUCCAGACAGGAGAGCAAUGGAAUUCUCGGGUGCCAA,0.968
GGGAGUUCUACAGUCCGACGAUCGUUUGUCCCUUCUACAGGCAUGAGGAAUCUGGGAGGCCCUGAGACAGGGAUUGUGCUUCAUUCCAAUCUAUUGCUUCACCAUGGCCUUAUGAGGCAGGUGAGAGAUGUUUUGGAAUUCUCGGGUGCCAA,23.4
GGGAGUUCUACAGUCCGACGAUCCUCAGCUAUUCCUGCAGCCAUGGUCCCCAAGAAGUUUAGCCUAUGGGAGAAGAGAGGGUUUCCCUACAUAUCCCCAGAGAAAUCAGGUGACUUUUUCCCGGAGAUGGGGGUGGAAUUCUCGGGUGCCAA,0.409
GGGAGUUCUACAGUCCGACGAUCUCCACCCUUGGCCUGUCUCAUCCCCAGGGGUCCCAGCCACCCCGGGCUCUCUGCUGUACAUAUUUGAGACUAGUUUUUAUUCCUUGUGAAGAUGAUAUACUAUUUUUGUUUGGAAUUCUCGGGUGCCAA,0.273
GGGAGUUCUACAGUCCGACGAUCUUAGGACUGUUUCUCUCUAAGACACCAUUGUUUUCCCUUAUUUUAAAAGUGAUUUUUUUAAGGACAGAACUUCUUCCAAAAGAGAGGGAUGGCUUUCCCAGAAGACACUCUGGAAUUCUCGGGUGCCAA,0.281
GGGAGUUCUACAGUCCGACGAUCAUCCAUGUAGGAAAGUAAAAUGGAAGGAAAUUGGGUGCAUUUCUAGGACUUUUCUAACAUAUGUCUAUAAUAUAGUGUUUAGGUUCUUUUUUUUUUCAGGAAUACAUUUGUGGAAUUCUCGGGUGCCAA,0.601
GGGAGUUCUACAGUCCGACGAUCAUUUGUCCUUUUCUUACUGGCAGGUAGUUGCUCACAUAUUCAUCUCUUGCCAAAUAAGGGCCUGCUCCUCGUGGGAGACCACAGGUGUACAGUCGGUGGCCUUGUACCUGUGGAAUUCUCGGGUGCCAA,0.427
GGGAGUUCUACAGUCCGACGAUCUUGACUGGGUAGGGGUCUUGUCCAUUUGUGGGGGAGGAUGUGGUGAAGGUGGACCUUCUACAAUCUGUCAUGAACUGUGAUAUUGUAAGGUCUAUAUUCUGUAUGUGGAUUGGAAUUCUCGGGUGCCAA,1.28
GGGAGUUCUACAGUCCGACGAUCGGAGCAGCAGUUGACUCCUGGUUCCCUCCCUAUUUCAGCCUGGAUGUGGGGCUGGUGGAGAUGCCUCCACCCCAGGAGCCUCUGCAUAUGUGGUUCGUGGCCUUCUUCUCUGGAAUUCUCGGGUGCCAA,0.371
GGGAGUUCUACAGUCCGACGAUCCAUUAACAUGGUAAAGAUUGUAUGAAAUACCUGUUUUUCAAAAAAAUAAAAAUAAAGGUUCAAGUCUAAAAAGAUAACAGUAUCUAAGCUCUGAAUUUAUUGAAGUAGAUUGGAAUUCUCGGGUGCCAA,0.715

# Study 2
# Target: Histone acetyltransferase KAT6A, winged helix 2, GST fusion (KAT6A, Homo sapiens, UniProt Q92794, residues 85-181)
# Method: protein binding microarray
# Molecule type: double-stranded DNA, one strand shown
# Medium: in vitro
# Concentration: not given
# Notes: 8-mer, flanks averaged, mean of 2 arrays, mostly near background
# Baseline: not given
# Reading: higher = stronger binding
# Construct (chain): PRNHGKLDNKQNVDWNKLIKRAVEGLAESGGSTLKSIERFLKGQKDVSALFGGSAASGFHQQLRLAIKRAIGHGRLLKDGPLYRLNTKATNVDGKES
Sequence,E-score
CAAGGTAC,-0.0967
AGAGGCCA,-0.0865
GAGGAGCC,0.00765
GATACAAC,0.0333
GAGCGTCC,-0.0208
CAACCGTA,-0.236
ATGTCCAA,0.0413
AAGCAAAC,-0.027
AGTCCTAA,-0.156
ACTGCCCG,0.0794
ATCCCTTG,-0.0673
CCGGGTCG,0.185
GACAAAGC,0.111
AAAGCGGA,0.0397
ACAGGGCG,0.116
ATCGTTCC,-0.0871
AAGCGACA,0.136

# Study 3
# Target: Prothrombin, mature alpha-thrombin (F2, Homo sapiens, UniProt P00734)
# Method: aptamer microarray, sandwich
# Molecule type: DNA with 2'F-ANA
# Medium: in vitro
# Concentration: 200 nM
# Notes: whole 15-mer aptamer, many near background
# With: Cy3 exosite-II aptamer, 400 nM
# Reading: higher = stronger binding
# Sequence: GGTTGGTGTGGTTGG
Modification,mean fluorescence intensity
2'F-ANA at 1 10 12 13 14 15,57.8 a.u.
2'F-ANA at 5 8 11 12 13 14 15,50 a.u.
2'F-ANA at 1 3 4 6 7 9 13 15,97.5 a.u.
2'F-ANA at 3 5 7 10 13 14,85 a.u.
2'F-ANA at 7 8 10 12 13 14,108 a.u.
2'F-ANA at 2 5 9 11 13 15,52.9 a.u.
2'F-ANA at 1 2 5 14,48.3 a.u.
2'F-ANA at 2 3 4 5 6 7 9 12 13,98.5 a.u.
2'F-ANA at 1 6 9 12 13 14,76.6 a.u.
2'F-ANA at 1 2 5 6 7 8 9 10 11,51.3 a.u.
2'F-ANA at 2 4 7 8 11 15,331 a.u.
2'F-ANA at 1 6 7 8,229 a.u.
2'F-ANA at 1 5 7 9 10 11 14,46.5 a.u.
2'F-ANA at 1 2 3 7,254 a.u.
2'F-ANA at 1 4 5 6 7 8 11 12 13 15,68.8 a.u.
2'F-ANA at 2 3 7 10 13 14,314 a.u.
2'F-ANA at 1 2 3 6 8 10 13,61.2 a.u.
2'F-ANA at 1 4 6 9 12 13,152 a.u.
2'F-ANA at 1 2 3 4 5 8 11 12,95.5 a.u.
2'F-ANA at 3 5 7 8 9 11,132 a.u.
2'F-ANA at 2 3 4 5 9 10 13 14,55.9 a.u.
2'F-ANA at 2 3 6 8 11 12 15,890 a.u.
2'F-ANA at 1 7 8 10 11 12 13,64.4 a.u.
2'F-ANA at 7 8 13,643 a.u.
2'F-ANA at 1 2 3 4 6 9 13 15,112 a.u.

# Study 4
# Target: TAR DNA-binding protein 43, full length, His tag (TARDBP, Homo sapiens, UniProt Q13148, residues 1-414)
# Method: RNA Bind-n-Seq
# Molecule type: RNA
# Medium: in vitro
# Concentration: 20 nM
# Notes: 6-mer, flanks averaged, single round
# With: 150 mM LiCl
# Baseline: input library
# Reading: higher = stronger binding
Sequence,6-mer enrichment (R)
AAACUA,0.836
UGACAA,0.855
UUCGCC,0.91
UGAAGC,0.938
CAUACC,0.867
GUUAGU,1.16
AGGGAG,1.18
GUCCUC,0.897
GGGUGC,1.28
CGGGCU,1
AAACUG,0.843
ACCAGG,0.898
CAGCGC,0.94
AUAGCG,0.921
CAGUUU,1.02
GCUAGU,0.971
GGUGCA,1.09
UACUCA,0.836
CCGCUC,0.909

# Study 5
# Target: Sal-like protein 4, full length isoform B (SALL4, Homo sapiens, UniProt Q9UJQ4-2, residues 1-616)
# Method: universal PBM
# Molecule type: double-stranded DNA, one strand shown
# Medium: in vitro
# Concentration: not given
# Notes: 8-mer, flanks averaged, mean of replicates
# Reading: higher = stronger binding
# Target sequence (chain): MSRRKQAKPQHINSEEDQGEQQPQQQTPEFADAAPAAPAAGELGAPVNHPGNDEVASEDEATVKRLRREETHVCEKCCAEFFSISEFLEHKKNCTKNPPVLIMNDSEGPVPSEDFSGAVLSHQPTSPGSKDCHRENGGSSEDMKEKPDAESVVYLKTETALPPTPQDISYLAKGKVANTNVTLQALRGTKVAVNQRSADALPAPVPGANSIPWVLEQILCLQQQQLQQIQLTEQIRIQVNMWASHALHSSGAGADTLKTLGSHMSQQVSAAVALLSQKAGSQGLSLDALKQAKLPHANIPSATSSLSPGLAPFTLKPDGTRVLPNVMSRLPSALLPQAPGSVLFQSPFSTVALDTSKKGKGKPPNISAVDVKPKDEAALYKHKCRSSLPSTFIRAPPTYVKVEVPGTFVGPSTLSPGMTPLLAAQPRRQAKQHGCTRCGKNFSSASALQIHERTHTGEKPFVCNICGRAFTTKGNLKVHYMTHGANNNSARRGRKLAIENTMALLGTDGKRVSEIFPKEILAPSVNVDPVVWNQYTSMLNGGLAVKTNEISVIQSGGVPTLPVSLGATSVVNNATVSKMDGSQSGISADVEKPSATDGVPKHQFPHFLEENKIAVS
Sequence,E-score
AGATGATG,0.156
AATTGCCC,0.0646
ATTTTGGC,0.187
ACGTCTAG,0.131
GTGTCTGA,-0.0623
CCGACGTA,-0.116
ATTTCAAC,0.235
ATCGGCTG,-0.154
CACTGGTC,-0.226
CAGAGCCA,-0.106
CCACCGCA,-0.201
CATGCAGA,-0.0602
CGGTTCCA,-0.243
GCCCTCAA,-0.111
AAAGGAAG,-0.116
CGAGGCAG,-0.172
AAGCCGAG,-0.29
CCCATAAA,0.142
AGCCTCGG,-0.338
CAGGACTA,-0.084
GTCATTGA,0.197
ACATTTTA,0.349
ACCAACGT,0.0199
CAAGTTAC,0.0625

# Study 6
# Target: ABI1, truncated, D143A, DHFR fusion (Arabidopsis thaliana)
# Method: DHFR PCA, deep sequencing
# Medium: yeast
# Notes: methotrexate growth selection, single substitutions
# With: (+)-ABA 58 µM
# Baseline: wild-type fitted maximum
# Reading: higher = stronger binding
# Parent: PYL1, truncated, DHFR fusion (Arabidopsis thaliana); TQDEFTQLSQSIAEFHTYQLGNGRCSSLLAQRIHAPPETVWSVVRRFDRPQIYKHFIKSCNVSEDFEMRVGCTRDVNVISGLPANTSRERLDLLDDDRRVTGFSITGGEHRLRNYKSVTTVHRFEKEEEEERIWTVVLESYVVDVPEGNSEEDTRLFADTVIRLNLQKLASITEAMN; partner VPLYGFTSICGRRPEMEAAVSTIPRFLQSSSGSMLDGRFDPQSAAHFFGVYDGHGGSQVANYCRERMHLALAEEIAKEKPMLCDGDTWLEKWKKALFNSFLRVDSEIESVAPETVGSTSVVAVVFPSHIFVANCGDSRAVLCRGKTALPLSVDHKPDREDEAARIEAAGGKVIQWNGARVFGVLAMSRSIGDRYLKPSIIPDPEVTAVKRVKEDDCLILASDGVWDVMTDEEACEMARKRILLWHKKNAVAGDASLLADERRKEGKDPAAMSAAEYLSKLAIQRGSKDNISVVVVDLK
Change,relative binding score
F56A,7.75%
V145I,81.9%
M68Y,76.9%
T17N,64.8%
R113Y,71.2%
E109A,76.3%
E38T,64.9%
R88W,60.4%
T17S,92.9%
A13D,85%
D92M,45.8%
S117M,5.5%
G81T,20.1%
P146D,12.2%
Q31Y,40.1%
V62E,3.95%

# Some of these lines once more (study 5):
Sequence,E-score
CCGACGTA,-0.116
CAGAGCCA,-0.106
AAGCCGAG,-0.29
CGGTTCCA,-0.243
CGAGGCAG,-0.172
AGATGATG,0.156
GTGTCTGA,-0.0623
